Measurements pooled from the literature.
Parts stem from different laboratories: compare values within a part only. Several values in a cell are separate wells, animals, samples, runs or records.
Chain of UniProt Q9C098 (whole entry, looked up): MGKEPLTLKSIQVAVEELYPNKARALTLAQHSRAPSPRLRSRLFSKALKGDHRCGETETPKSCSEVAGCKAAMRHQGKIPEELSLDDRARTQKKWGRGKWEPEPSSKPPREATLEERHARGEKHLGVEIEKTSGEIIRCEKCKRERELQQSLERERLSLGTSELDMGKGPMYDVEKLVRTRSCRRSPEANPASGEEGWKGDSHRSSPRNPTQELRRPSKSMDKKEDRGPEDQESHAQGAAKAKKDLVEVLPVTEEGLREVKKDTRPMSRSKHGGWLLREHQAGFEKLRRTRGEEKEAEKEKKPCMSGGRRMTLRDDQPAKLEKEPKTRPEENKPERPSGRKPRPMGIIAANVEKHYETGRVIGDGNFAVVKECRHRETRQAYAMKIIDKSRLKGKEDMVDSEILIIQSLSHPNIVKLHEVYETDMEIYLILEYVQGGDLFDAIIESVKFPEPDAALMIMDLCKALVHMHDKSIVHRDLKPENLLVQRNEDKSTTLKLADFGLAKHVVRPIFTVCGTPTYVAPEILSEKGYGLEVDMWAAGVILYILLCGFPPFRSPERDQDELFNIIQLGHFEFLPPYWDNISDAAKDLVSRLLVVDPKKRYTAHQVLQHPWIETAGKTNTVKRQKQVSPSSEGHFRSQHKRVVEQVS
Chain of UniProt Q13464 (whole entry, looked up): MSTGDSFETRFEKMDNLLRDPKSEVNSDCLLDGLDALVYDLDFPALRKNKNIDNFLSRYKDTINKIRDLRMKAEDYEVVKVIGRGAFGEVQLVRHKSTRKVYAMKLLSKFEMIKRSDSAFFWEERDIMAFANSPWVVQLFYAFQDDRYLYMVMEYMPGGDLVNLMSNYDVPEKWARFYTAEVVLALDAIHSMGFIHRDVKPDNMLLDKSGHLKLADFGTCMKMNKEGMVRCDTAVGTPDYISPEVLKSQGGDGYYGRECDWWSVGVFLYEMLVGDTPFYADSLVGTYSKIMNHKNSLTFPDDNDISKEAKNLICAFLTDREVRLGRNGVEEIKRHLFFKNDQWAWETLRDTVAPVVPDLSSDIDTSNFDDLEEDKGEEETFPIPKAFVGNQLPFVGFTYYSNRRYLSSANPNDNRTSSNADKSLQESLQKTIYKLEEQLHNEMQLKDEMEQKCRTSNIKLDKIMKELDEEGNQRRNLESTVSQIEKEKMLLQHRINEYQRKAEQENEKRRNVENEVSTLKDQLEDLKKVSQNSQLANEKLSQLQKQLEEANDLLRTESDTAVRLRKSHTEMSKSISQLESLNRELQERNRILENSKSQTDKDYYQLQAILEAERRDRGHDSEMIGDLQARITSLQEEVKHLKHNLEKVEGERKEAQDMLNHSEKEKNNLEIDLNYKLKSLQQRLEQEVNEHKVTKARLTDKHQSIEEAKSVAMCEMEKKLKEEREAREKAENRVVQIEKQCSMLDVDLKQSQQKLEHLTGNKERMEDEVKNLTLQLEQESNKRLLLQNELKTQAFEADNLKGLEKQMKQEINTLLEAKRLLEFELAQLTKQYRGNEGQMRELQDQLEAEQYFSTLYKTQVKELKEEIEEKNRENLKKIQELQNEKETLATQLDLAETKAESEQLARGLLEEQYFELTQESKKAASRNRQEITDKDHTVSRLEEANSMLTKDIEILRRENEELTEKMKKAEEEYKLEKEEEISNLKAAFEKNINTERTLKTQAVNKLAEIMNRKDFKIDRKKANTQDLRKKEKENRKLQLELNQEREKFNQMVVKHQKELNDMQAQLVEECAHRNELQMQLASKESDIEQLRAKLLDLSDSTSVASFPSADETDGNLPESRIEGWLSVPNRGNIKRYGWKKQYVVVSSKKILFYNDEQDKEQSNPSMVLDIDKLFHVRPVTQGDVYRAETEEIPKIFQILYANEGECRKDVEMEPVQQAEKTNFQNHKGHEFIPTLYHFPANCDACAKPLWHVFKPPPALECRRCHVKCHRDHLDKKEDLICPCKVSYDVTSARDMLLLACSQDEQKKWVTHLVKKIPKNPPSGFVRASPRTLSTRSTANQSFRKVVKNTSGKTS
Chain of UniProt Q9UPZ9 (whole entry, looked up): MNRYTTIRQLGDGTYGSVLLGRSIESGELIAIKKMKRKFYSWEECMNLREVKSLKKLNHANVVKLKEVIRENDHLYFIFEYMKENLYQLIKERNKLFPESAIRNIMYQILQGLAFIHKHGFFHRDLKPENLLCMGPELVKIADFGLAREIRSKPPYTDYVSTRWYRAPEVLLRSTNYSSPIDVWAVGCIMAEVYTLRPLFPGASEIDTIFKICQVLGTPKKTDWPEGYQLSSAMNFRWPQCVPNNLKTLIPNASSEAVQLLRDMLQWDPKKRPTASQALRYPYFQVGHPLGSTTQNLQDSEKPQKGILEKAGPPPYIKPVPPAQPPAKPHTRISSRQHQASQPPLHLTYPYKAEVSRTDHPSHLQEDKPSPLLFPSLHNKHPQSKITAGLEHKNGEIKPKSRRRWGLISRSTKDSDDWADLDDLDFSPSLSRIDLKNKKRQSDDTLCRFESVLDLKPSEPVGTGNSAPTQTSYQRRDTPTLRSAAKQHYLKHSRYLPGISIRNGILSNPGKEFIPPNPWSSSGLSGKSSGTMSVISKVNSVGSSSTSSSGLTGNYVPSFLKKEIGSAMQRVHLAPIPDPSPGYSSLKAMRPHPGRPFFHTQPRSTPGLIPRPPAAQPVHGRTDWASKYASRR
Chain of UniProt Q8NG66 (whole entry, looked up): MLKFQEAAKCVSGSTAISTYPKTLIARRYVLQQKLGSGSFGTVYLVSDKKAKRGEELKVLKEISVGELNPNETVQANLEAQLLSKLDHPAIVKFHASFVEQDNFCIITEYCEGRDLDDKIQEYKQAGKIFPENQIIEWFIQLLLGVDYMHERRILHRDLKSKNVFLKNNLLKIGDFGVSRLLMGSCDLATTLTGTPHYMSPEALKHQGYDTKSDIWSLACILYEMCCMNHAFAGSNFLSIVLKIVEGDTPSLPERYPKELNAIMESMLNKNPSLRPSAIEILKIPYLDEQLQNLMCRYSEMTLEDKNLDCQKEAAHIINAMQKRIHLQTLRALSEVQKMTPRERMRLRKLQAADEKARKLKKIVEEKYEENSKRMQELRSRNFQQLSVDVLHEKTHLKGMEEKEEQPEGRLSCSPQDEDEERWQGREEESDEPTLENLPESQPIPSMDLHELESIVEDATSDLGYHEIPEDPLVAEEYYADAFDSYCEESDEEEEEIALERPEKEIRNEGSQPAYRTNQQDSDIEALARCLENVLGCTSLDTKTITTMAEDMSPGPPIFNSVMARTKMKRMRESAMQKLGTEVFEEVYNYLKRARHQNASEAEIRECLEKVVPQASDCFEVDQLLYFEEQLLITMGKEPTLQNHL
Chain of UniProt Q9H3Y6 (whole entry, looked up): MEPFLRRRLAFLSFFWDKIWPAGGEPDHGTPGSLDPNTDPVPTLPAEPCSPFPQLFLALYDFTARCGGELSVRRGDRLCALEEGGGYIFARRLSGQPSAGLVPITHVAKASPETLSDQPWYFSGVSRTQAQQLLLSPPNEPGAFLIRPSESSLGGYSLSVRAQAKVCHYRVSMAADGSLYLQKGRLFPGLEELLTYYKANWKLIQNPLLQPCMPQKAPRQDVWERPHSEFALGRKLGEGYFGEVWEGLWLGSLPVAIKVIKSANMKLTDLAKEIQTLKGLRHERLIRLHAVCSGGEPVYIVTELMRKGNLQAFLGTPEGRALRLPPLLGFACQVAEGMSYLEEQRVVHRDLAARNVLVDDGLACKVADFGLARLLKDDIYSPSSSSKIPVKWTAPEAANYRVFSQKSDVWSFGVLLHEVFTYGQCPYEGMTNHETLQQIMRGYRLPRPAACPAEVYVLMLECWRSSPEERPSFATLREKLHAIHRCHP
Chain of UniProt P49759 (whole entry, looked up): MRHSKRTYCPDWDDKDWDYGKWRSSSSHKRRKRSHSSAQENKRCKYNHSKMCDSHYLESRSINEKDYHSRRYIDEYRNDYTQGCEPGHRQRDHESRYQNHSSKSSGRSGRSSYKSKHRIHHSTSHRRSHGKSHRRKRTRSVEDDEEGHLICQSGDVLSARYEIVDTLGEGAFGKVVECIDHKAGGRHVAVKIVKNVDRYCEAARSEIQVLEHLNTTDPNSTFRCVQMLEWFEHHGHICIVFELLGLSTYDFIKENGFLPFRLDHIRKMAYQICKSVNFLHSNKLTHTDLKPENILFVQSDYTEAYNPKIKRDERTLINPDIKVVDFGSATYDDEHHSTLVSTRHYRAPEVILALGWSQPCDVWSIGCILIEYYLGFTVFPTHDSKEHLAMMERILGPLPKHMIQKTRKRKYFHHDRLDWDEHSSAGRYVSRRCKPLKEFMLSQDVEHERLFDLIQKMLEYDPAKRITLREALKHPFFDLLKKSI

Series 1
Species: human
Matrix: microsomes or S9
Tested at: 2 µM
Time: 0.5 h
SMILES | remaining compound [%]
Cc1nn(CCOC(=O)c2ccoc2)c2ncc(Br)cc12 | 3.75
CCN(CC)S(=O)(=O)c1ccc2nc(NCc3cc(F)cc(F)c3)cnc2c1 | 21.4
CN(Cc1ccccc1N1CCCCC1)S(=O)(=O)c1cn(C)c(=O)n(C)c1=O | 3.37
Cc1ccc(S(=O)(=O)Nc2nc3ccc(NC(=O)c4cc(-c5cccs5)n[nH]4)cc3s2)cc1 | 0.155
COC(=O)c1cccc2[nH]c(NCc3c(C)nn(C(C)(C)C)c3C)nc12 | 27.5
Cc1cc(C)c(-c2n[nH]cc2-c2nc3ccccc3s2)c(O)c1 | 45.9

Series 2
Compound: COc1ccc2cc(OCC3(C(=O)O)CN(C(=O)c4ccc(F)cc4)C3)ccc2c1
Method: competition with immobilised ligand
Tested at: 1 µM
target | assay | remaining binding
NEK11 (Homo sapiens, UniProt Q8NG66) | cell-free assay | 93%
CLK1 (Homo sapiens, UniProt P49759) | cell-free assay | 79%
CILK1 (Homo sapiens, UniProt Q9UPZ9) | binding | 78%
ROCK1 (Homo sapiens, UniProt Q13464) | cell-free assay | 100%
DCLK3 (Homo sapiens, UniProt Q9C098) | cell-free assay | 98%
SRMS (Homo sapiens, UniProt Q9H3Y6) | cell-free assay | 100%

Further values, each from its own experiment
SMILES | target or system | assay | test system | setting | how to read | measurement | result
CCOC(=O)[C@@H]1CSCC(=O)N[C@@H](CC)C(=O)N(C)[C@@H](C)C(=O)N[C@H](CC(C)C)C(=O)N2CCC[C@@H]2C(=O)N(CC)CC(=O)N[C@@H](CC(C)C)C(=O)N(C)[C@@H](C)C(=O)N[C@@H](CC(C)C)C(=O)N1C |  |  | hydrocarbon/water |  |  | logD | -0.23
CC(C)(C(=O)O)[C@H](NC(=O)Cc1cccc(I)c1)c1ccc2oc(=O)[nH]c2c1 | MEL-JUSO | Incucyte 3D growth |  | 30 µM, 294.52 h | higher = more growth | spheroid area | 2.56e+07 a.u. and 2.39e+07 a.u. and 2.61e+07 a.u. and 2.18e+07 a.u. and 4.05e+07 a.u. and 2.27e+07 a.u.

Excerpt of the above (further values, each from its own experiment):
SMILES | target or system | assay | test system | setting | how to read | measurement | result
CCOC(=O)[C@@H]1CSCC(=O)N[C@@H](CC)C(=O)N(C)[C@@H](C)C(=O)N[C@H](CC(C)C)C(=O)N2CCC[C@@H]2C(=O)N(CC)CC(=O)N[C@@H](CC(C)C)C(=O)N(C)[C@@H](C)C(=O)N[C@@H](CC(C)C)C(=O)N1C |  |  | hydrocarbon/water |  |  | logD | -0.23
CC(C)(C(=O)O)[C@H](NC(=O)Cc1cccc(I)c1)c1ccc2oc(=O)[nH]c2c1 | MEL-JUSO | Incucyte 3D growth |  | 30 µM, 294.52 h | higher = more growth | spheroid area | 2.56e+07 a.u. and 2.39e+07 a.u. and 2.61e+07 a.u. and 2.18e+07 a.u. and 4.05e+07 a.u. and 2.27e+07 a.u.
